Assay results from different studies.
A part holds a random share of what one study measured.

Block 1 — technique: aptamer microarray, sandwich; form: DNA with 2'F-ANA; sample: in vitro; concentration: 200 nM; added: Cy3 exosite-II aptamer, 400 nM; direction: higher = stronger binding; strand: GGTTGGTGTGGTTGG
Target: Prothrombin, mature alpha-thrombin (F2, Homo sapiens, UniProt P00734)
Notes: whole 15-mer aptamer, many near background
Modification | mean fluorescence intensity [a.u.]
2'F-ANA at 1 3 4 6 7 10 13 14 | 96.2
2'F-ANA at 2 3 4 6 8 11 12 | 803
2'F-ANA at 4 6 8 9 10 13 14 15 | 56
2'F-ANA at 4 8 9 11 12 | 436
2'F-ANA at 3 6 7 8 9 11 12 14 | 650
2'F-ANA at 2 6 9 11 13 14 | 98.3
2'F-ANA at 2 3 5 8 9 10 11 12 15 | 69
2'F-ANA at 1 3 6 8 11 | 266
2'F-ANA at 3 6 7 9 10 11 | 452
2'F-ANA at 2 4 10 12 13 14 15 | 65.6
2'F-ANA at 3 4 6 8 9 11 12 14 | 295
2'F-ANA at 1 6 7 10 11 12 13 15 | 67.9
2'F-ANA at 1 3 4 5 6 9 10 | 45.8
2'F-ANA at 3 5 7 9 11 12 13 14 | 62.1
2'F-ANA at 1 2 4 6 7 9 13 | 66.9
2'F-ANA at 1 4 5 6 9 11 13 15 | 55
2'F-ANA at 3 4 5 6 7 8 11 13 14 15 | 53.5
2'F-ANA at 3 5 6 8 9 11 12 15 | 168
2'F-ANA at 3 7 8 10 12 14 | 428
2'F-ANA at 4 5 6 8 14 | 47.8
2'F-ANA at 1 9 12 15 | 419
2'F-ANA at 1 3 5 6 8 11 12 13 | 85.4
2'F-ANA at 3 4 6 13 15 | 381
2'F-ANA at 1 2 3 4 6 8 9 12 13 14 | 61.6
2'F-ANA at 3 5 9 14 | 55.5

Block 2 — technique: protein-binding microarray; form: double-stranded DNA, one strand shown; sample: in vitro; concentration: 2540 nM top; notes: 60-bp whole probe; added: salmon DNA 0.4 mg/ml; reference: random background probes; direction: higher = stronger binding; shared flanks, not repeated: GCCTAGCAC … GTCTTGATTCGCTTGACGCTGCTG
Target: Interferon regulatory factor 3, full length, phosphomimetic (IRF3, Homo sapiens, UniProt Q14653, residues 1-427, S386D/S396D/S398D/S402D/T404D/S405D)
UniProt Q14653, sequence (whole entry, unmodified, looked up): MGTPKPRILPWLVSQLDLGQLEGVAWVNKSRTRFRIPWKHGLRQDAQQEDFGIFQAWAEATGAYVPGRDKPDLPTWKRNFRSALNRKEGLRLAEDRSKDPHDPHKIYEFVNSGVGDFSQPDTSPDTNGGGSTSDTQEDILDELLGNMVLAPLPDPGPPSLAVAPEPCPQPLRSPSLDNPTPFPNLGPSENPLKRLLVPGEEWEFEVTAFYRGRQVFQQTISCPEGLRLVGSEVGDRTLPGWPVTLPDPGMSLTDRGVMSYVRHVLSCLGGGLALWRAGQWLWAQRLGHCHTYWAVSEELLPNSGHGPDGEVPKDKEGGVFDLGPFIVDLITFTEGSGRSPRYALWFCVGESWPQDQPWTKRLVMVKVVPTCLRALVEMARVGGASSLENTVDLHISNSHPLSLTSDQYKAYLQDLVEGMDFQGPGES
Strand | fitted relative affinity [z-score]
TTAGATATCAGAGTGGATTAGTGCTAG | 0.142
GGTCTTCTGGGCTGTTTGATCGTGCTA | -0.0247
TTAGGACTGGGGTCTCGGTTAGTGCTA | -0.939
GACGGTTTCCGGTATCGGGACGTGCTA | 4.08
GGCGAACTGAGTTTCGAGACGTGCTAG | 0.965
TTTAGAAAGATTAGGGGTGCGTGCTAG | -0.475
TGACAGAGTGAGGTTTGGGCGTGCTAG | -1.19
GCCGGACTGGGACTGGGGACGTGCTAG | -0.567
GACGGTCTCCTTAGCCTGACGTGCTAG | 0.834
GACGGTTTCCTTATGCTGACGTGCTAG | 6.56
TTCGATCTCAGTTTCGATTAGTGCTAG | 3.65
AACGGTCTCCTTTTCCTGACGTGCTAG | 4.59
TTAGGTCTCCTGCTCCTTTAGTGCTAG | 0.282
TTAGATTACAGTTCCGATTAGTGCTAG | 1.81
GACGATTTCATACTGGAGACGTGCTAG | 1.56
TTAGGTATCGACGATCGGTTAGTGCTA | -0.182
TCCTGGAGTCTATGCTGCTGGTGCTAG | -0.706
TTAGGTTTCGGAATCGGTTAGTGCTAG | 7.84
GACGGACTGGGGTCTGGGGACGTGCTA | -0.95
TCAATTTGGCATATCTAACTGTGCTAG | 0.472
GGTTTTCTCTGGTTCTTGCTGTGCTAG | 0.894
ATGTTTTGAGTTTTCCTTCAGTGCTAG | 1.76
TCATTTTTTTTTTTGTAACTGTGCTAG | 1.22
GACGGTATCCTTCTTCTGACGTGCTAG | 6.71

Block 3 — technique: RNA Bind-n-Seq; form: RNA; sample: in vitro; concentration: not given; reference: input RNA pool; direction: higher = stronger binding
Target: RING finger protein unkempt homolog, zinc fingers 1-6, GST-SBP tag (UNK, Homo sapiens, UniProt Q9C0B0, residues 30-357)
UniProt Q9C0B0, sequence (30-357, looked up): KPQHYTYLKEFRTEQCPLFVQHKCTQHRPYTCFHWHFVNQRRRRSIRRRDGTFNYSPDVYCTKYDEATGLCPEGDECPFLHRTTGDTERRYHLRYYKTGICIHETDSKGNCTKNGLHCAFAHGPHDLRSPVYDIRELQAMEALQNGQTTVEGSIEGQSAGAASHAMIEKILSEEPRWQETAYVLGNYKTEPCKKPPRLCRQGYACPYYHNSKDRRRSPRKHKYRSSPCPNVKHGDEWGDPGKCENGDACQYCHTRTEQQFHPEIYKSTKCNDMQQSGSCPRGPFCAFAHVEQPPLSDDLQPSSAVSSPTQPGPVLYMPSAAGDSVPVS
Notes: RNA with constant flanks, human and mouse sites, ends assumed
Strand | bound/input enrichment
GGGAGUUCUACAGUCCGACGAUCCAAUAGAAGCUGUGGAUGAAUUCGCUUUUCUAGAAGGACUAUUUAACAAACUGCAAUCAACAGCAAUCAACAGCUAUGAACCAGCAACCUACCCUGCCUCUUGGGACCCUAGCAUUUAUACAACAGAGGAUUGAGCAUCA | 5.53 ratio
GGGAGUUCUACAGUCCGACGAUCGAUGAAGAAGGUGAAGGGGAUGAUGGUUAUGAACAAAUUUCCAGUGAUGAAGAUGGAAUUGCUGACUUGGAACGUGAAACAUUUAAGUAUCCAAACUUUGAUGUUGAAUACACUGCUGAACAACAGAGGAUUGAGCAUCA | 0.143 ratio
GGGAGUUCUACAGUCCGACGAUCGGAGAUGGACUUUUUGAUGAAGAAAUCCGAAGUGUCUUUACCAAUCCGGGUGUUUUGGCUGUCUUGGGUUUUGACAAAACCUGCCUGGUUCCCUUUGGGGGAUCCGAAUGAGCGAUCUCACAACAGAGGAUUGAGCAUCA | 0.141 ratio
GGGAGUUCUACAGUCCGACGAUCUUCAAAGCCUUACGUCGACAGUUGCCAGUUACACGCACUAAGAUUGAUUGGAACAAGAUCCUUAGCUACAAGAUUGGCAAAGAGAUGCAGAAUGCAUAAGAUGAACAUUGCAUGACCGGACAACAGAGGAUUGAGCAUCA | 0.241 ratio
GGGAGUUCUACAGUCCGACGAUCAUUGUUAUAAAGGACAUAGUUGGUAUACAUUUUCUGCUUCCAACUCAGCUUUGGUGCGAAUCGAGUGAAACUAGAUAUUGAAUAAGACUUGUCAAUAUCAAACGAUUUUUUUGCUGACUGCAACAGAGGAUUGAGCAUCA | 0.137 ratio
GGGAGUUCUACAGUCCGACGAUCAAGGUUUGGUGGUUGGCAUUAUACCACUGAUACAAAGUAUUAGCAAAGUAUAGUUCAAAUUAAGUGACAUGACCAAGAGCUUUUCUCUUAAAAAAGAUGGAUUUUAUUGUAAAUAGUUUCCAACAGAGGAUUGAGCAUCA | 0.701 ratio
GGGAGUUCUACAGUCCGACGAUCCUUAGUCGUGUCACUCUUCUUGAAACAGAAAUGCUUUUGUCUAAAAAGAAUGAUGAAUUUAUAGAGUUUAAUGAAGUUAGUGAAGACUACGCUUCUUGUAGUGACAUGGACCUUCUGAAUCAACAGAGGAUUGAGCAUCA | 0.184 ratio
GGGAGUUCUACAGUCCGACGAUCCCCAAGCACUGUAGAGGAAGCUGUGCUCGCCUUAGAGCAUUUUUUUUCUUGCGUUUUGGUUUUAGGGGUGGGUGGGUUGUGGCACACACCUCUGAGGCCAGAGCCAUCGGGUUCACCCUCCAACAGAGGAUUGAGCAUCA | 0.549 ratio
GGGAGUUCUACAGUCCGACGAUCUUGAUGGAGUCAGUAUGGAAUAUGAAUGAUAGCUGUAGAUUUCAACUUCGGUCUCCAGAGAGCCUGAAGAGCAUGGAAAAAGCCAGCAAAACUCUUGAGACAAAGCCCGAGAGUAAGCAGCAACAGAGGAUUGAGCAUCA | 0.26 ratio
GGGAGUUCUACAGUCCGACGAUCCCCCCUUUCAGGUGUGGUAUCAGUACGCUUUGAAGAAGAUGAAGACAGGAACUUGUGUUUAAUAGCAUAUCCAUUAAAAGGGGACCAUGGAACUGUGGAUAUAGUAGACAAUUCGGACUGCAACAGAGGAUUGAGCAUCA | 0.741 ratio
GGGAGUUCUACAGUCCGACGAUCCCGCCGUGCAUGGGCUUCUUUUUGCACCCUGCUCACCCACCCAGUCUUUUGUAAUACUGUUUUCUAAACUUAUUUCUGAGUAUAAUCUCAGCUUGAAAUUGUAUAAUGCUAGAAUCAUGACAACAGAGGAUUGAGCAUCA | 0.322 ratio

Block 4 — technique: protein binding microarray; form: double-stranded DNA, one strand shown; sample: in vitro; concentration: not given; reference: not given; direction: higher = stronger binding
Target: Histone acetyltransferase KAT6A, winged helix 2, GST fusion (KAT6A, Homo sapiens, UniProt Q92794, residues 85-181)
Notes: 8-mer, flanks averaged, mean of 2 arrays, mostly near background
Target sequence (chain): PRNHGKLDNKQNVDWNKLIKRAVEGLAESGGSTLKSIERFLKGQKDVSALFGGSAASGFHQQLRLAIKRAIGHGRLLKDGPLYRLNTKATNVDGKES
Strand | E-score
AGTAACCC | -0.0908
ATATATAA | 0.0112
CCTGAGTC | 0.00428
TAATAAAA | 0.237
CGGTACCA | -0.0402
CTATTAGA | -0.042
CCGCAGAG | 0.00122
GAGCATCA | -0.0907
GTTCCAGA | -0.026
CAATGCAC | -0.0273
GAATTTGA | 0.00455
ACGTCTGA | -0.0368
CTCTCACC | -0.0102
GCATGGGC | 0.00639
CGCGGCAC | 0.119
ATTAATGC | -0.021
CGGTTAGA | -0.082
AAGGTCGT | -0.0996
ATGCAGGG | 0.0558
ACAGTGCG | -0.111
AGATAGTC | -0.198
GCGTGATA | 0.0808
CTCCCCGC | 0.239
CCCACGAA | 0.0868
